Measurements of several laboratories.
Every numbered part comes from another study and shows a few of its results, in no order.
Chain of UniProt P42336 (whole entry, unmodified, looked up): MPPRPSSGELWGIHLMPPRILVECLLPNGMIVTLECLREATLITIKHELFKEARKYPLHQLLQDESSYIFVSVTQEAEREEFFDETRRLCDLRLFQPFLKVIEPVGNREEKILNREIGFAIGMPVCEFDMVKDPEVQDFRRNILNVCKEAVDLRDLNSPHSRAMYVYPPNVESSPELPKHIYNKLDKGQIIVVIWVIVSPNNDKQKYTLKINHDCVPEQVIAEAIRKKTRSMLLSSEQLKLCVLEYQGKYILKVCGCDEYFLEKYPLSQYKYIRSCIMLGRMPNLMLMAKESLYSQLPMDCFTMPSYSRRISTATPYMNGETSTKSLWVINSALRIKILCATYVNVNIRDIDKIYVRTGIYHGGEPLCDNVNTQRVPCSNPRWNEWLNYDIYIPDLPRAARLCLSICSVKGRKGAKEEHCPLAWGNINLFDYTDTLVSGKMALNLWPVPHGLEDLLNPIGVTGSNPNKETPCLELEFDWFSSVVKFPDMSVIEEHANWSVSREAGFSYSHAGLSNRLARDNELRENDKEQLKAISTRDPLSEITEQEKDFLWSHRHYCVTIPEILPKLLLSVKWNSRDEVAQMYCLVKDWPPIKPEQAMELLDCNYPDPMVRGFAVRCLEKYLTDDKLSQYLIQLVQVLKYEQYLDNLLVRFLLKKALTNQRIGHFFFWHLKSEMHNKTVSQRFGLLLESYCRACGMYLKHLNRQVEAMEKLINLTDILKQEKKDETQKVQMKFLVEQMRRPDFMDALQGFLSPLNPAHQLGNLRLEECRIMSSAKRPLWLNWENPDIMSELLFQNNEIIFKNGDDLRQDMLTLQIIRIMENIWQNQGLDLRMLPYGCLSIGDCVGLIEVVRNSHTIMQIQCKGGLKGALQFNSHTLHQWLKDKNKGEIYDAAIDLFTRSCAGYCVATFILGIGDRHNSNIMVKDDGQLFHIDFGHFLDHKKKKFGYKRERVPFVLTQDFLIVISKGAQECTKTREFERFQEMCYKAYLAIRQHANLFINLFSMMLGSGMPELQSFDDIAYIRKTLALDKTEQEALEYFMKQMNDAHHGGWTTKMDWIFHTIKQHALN
Chain of UniProt Q15759 (whole entry, looked up): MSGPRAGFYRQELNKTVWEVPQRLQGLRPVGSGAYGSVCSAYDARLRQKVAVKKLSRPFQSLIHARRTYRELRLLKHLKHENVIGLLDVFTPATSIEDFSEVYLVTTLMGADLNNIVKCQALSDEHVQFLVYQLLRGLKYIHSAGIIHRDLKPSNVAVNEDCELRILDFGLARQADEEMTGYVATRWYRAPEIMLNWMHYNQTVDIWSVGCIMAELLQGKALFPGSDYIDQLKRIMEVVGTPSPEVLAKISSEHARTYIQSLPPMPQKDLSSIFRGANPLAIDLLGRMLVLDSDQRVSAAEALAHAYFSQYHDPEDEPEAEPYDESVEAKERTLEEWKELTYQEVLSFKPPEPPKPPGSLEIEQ
Chain of UniProt Q9H1R3 (whole entry, looked up): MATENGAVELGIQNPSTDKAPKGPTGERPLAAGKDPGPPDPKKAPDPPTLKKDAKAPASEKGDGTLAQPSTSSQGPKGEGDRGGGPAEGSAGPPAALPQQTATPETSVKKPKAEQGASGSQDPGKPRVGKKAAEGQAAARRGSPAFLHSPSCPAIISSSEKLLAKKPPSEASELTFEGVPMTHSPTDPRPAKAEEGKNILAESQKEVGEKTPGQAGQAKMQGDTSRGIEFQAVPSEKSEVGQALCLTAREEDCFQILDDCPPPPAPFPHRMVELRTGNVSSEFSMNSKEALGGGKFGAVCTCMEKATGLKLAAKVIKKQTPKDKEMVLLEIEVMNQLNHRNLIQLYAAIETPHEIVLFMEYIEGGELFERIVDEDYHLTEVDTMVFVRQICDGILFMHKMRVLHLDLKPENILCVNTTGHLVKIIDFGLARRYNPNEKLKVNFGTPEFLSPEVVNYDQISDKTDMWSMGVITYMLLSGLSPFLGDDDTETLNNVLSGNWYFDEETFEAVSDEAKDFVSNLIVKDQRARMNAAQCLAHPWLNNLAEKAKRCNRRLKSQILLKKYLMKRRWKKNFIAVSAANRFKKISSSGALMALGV
Chain of UniProt Q9H4B4 (whole entry, looked up): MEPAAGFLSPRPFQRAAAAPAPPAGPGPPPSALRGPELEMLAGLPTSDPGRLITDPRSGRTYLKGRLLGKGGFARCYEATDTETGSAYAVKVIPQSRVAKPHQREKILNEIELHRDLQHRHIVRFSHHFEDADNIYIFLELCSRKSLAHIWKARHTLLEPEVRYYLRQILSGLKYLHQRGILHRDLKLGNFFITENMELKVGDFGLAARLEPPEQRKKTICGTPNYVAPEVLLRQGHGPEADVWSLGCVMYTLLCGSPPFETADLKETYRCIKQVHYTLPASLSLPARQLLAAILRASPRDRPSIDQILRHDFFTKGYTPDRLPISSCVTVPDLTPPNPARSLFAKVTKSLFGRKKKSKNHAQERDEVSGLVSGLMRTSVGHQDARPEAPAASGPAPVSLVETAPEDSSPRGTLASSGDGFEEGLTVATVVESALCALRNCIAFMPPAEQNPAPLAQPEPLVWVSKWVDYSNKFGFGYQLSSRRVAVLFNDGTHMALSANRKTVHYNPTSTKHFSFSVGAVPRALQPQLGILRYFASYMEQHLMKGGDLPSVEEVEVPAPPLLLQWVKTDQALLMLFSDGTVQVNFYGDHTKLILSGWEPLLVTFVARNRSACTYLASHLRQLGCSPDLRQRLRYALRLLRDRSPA
Chain of UniProt O75747 (whole entry, looked up): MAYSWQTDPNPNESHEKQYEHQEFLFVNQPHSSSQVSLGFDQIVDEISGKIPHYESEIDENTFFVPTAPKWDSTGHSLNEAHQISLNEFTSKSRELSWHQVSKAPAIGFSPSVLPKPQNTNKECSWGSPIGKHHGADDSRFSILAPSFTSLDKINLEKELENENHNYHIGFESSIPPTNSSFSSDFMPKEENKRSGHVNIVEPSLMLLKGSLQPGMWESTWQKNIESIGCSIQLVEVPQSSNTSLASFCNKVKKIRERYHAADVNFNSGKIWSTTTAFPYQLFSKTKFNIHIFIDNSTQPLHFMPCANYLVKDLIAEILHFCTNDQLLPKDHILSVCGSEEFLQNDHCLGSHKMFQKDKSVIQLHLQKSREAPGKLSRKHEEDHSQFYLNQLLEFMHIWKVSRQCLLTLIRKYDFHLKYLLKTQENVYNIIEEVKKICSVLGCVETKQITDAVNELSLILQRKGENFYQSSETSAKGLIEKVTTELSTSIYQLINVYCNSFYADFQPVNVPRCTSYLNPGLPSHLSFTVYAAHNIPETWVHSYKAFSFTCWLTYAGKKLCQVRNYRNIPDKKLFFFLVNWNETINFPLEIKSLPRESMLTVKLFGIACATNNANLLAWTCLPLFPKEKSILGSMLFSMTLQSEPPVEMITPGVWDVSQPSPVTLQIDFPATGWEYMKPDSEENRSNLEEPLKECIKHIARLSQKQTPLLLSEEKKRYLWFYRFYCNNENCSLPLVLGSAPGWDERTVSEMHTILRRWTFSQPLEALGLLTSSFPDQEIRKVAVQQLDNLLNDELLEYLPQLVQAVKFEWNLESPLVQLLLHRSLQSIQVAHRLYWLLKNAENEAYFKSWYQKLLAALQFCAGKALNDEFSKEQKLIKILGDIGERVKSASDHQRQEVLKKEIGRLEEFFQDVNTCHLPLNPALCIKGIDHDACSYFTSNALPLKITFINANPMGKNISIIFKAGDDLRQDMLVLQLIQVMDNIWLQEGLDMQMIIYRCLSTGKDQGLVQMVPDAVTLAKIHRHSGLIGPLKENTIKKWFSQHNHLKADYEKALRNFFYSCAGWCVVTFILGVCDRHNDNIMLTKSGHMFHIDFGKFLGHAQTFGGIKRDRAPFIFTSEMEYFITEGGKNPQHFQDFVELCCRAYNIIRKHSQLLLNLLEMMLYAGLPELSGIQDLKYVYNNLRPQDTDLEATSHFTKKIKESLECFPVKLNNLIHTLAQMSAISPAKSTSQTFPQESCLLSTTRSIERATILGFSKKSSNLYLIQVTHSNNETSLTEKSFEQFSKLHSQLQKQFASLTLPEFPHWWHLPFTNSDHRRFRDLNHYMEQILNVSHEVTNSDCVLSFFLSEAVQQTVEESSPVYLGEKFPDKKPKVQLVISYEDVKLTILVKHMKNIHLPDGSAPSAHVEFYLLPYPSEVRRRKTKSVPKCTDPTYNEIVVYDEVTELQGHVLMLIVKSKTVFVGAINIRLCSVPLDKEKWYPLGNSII
Chain of UniProt P19784 (whole entry, looked up): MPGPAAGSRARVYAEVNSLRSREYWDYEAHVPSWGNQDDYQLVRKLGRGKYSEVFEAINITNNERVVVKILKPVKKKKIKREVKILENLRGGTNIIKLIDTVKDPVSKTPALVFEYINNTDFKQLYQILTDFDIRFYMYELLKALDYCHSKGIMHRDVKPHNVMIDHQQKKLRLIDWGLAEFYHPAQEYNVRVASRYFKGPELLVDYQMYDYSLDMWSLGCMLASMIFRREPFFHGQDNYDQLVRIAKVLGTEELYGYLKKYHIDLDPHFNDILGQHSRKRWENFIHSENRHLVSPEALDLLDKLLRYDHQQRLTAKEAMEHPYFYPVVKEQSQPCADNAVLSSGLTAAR

Set 1
Compound: COc1ccc2c(c1)O[C@H](c1ccc(OC)c(OC)c1)C[C@@H]2NC(=O)C1(c2ccc3c(c2)OC(F)(F)O3)CC1
Read-out: cell-free assay
Method: competition with immobilised ligand
Tested at: 1 µM
Measurement: remaining binding
target = Phosphatidylinositol 4,5-bisphosphate 3-kinase catalytic subunit alpha isoform (PIK3CA, Homo sapiens, UniProt P42336, H1047L); value = 100%
target = Phosphatidylinositol 4,5-bisphosphate 3-kinase catalytic subunit alpha isoform (PIK3CA, Homo sapiens, UniProt P42336, I800L); value = 97%
target = Phosphatidylinositol 4,5-bisphosphate 3-kinase catalytic subunit alpha isoform (PIK3CA, Homo sapiens, UniProt P42336, M1043I); value = 84%
target = STE20-like serine/threonine-protein kinase (SLK, Homo sapiens, UniProt Q9H2G2); value = 100%
target = Phosphatidylinositol 3-kinase C2 domain-containing subunit gamma (PIK3C2G, Homo sapiens, UniProt O75747); value = 61%
target = Casein kinase II subunit alpha' (CSNK2A2, Homo sapiens, UniProt P19784); value = 100%
target = Serine/threonine-protein kinase PLK3 (PLK3, Homo sapiens, UniProt Q9H4B4); value = 100%
target = NUAK family SNF1-like kinase 2 (NUAK2, Homo sapiens, UniProt Q9H093); value = 100%
target = Mitogen-activated protein kinase 11 (MAPK11, Homo sapiens, UniProt Q15759); value = 93%
target = Myosin light chain kinase 2, skeletal/cardiac muscle (MYLK2, Homo sapiens, UniProt Q9H1R3); value = 95%
target = Epidermal growth factor receptor (EGFR, Homo sapiens, UniProt P00533, G719C); value = 100%

Set 2
SMILES: COc1cc(C(=O)N2CCC(N3CCN(C)CC3)CC2)ccc1Nc1ncc2c(n1)N(C)c1ccccc1C(=O)N2C
Method: KINOMEscan
Tested at: 10 µM
Relative to: DMSO control
Reading: lower = stronger binding
Measurement: binding
target = LYN; value = 100%
target = CDKL2; value = 100%
target = TSSK1B; value = 60%
target = WEE2; value = 100%
target = MYO3A; value = 94%
target = NEK2; value = 100%
target = PHKG1; value = 54%
target = RIOK2; value = 100%
target = MAPKAPK5; value = 97%
target = HIPK4; value = 100%
target = CSK; value = 90%

Set 3
Target: Protein-tyrosine kinase 6 (PTK6, Homo sapiens, UniProt Q13882)
Chain of UniProt Q13882 (whole entry, looked up): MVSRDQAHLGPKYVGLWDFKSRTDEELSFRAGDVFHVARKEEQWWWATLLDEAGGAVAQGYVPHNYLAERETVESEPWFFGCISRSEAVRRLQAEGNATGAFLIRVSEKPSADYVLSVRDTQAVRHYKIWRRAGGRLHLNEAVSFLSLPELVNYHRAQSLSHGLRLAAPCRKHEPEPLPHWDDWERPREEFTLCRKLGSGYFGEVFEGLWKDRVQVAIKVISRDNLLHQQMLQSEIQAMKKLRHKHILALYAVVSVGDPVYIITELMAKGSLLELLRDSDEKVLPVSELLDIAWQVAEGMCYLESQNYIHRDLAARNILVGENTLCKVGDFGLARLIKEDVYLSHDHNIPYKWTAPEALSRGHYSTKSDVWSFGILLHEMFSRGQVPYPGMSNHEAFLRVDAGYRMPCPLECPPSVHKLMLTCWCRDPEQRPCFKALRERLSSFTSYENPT
Read-out: enzyme activity
Mode: inhibitor
Tested at: 0.5 µM
Relative to: control
Measurement: remaining activity
Structure (SMILES) = CCOc1cc2ncnc(Nc3cccc(Br)c3)c2cc1OCC; value = 27.7%
Structure (SMILES) = Cc1ccc(NC(=O)c2ccc(CN3CCN(C)CC3)cc2)cc1Nc1nccc(-c2cccnc2)n1; value = 93.6%
Structure (SMILES) = Cn1cnc2cc3c(Nc4cccc(Br)c4)ncnc3cc21; value = 54%
Structure (SMILES) = COc1cc2ncc(-c3ccccc3)nc2cc1OC; value = 80.8%
Structure (SMILES) = CCN1/C(=C/C(C)=O)Sc2ccc(OC)cc21; value = 85.3%
Structure (SMILES) = CC(C)[C@H](CO)Nc1nc(Nc2cccc(Cl)c2)c2ncn(C(C)C)c2n1; value = 89.2%
Structure (SMILES) = C[S+]([O-])c1ccc(-c2nc(-c3ccncc3)c(-c3ccc(F)cc3)[nH]2)cc1 (stereo not drawn); value = 54.2%
Structure (SMILES) = CC(=O)O/N=C1/C(c2c(O)[nH]c3cc(Br)ccc23)=Nc2ccccc21; value = 91.2%
Structure (SMILES) = COc1cc2ncnc(N3CCN(C(=O)Nc4ccc(Oc5ccccc5)cc4)CC3)c2cc1OC; value = 95.2%
Structure (SMILES) = CCC(=O)Nc1ccc2ncnc(Nc3cccc(Br)c3)c2c1; value = 57.2%

Single results of other studies
Compound = CCOC(=O)CN(C(=O)c1ccn2ncc(-c3ccc(C(=O)NC)cc3)c2c1)c1ccc(Cl)cc1; test system = C57BL/6 IFN-γ knockout mouse, female, plasma; setting = oral, 10 mg/kg, 1 h; measurement = plasma concentration; value = 242 nM

For quick reference, copied from above (set 2):
target = RIOK2; value = 100%
target = MAPKAPK5; value = 97%
target = HIPK4; value = 100%
target = CSK; value = 90%
